Measurements gathered from unrelated publications.
Each line is one published result; not all experiments were run side by side. Several values in a cell are separate wells, animals, samples, runs or records. Numbers after ± are the reported error.
B1: PUM1 701-774 (Homo sapiens, UniProt Q14671); sequence looked up; chain TGSGSRRDSLTGSSDLYKRTSSSLTPIGHSFYNGLSFSSSPGPVGMPLPSQGPGHSQTPPPSLSSHGSSSSLNL
B2: HY5 S36D (Arabidopsis thaliana, UniProt O24646); sequence looked up; chain MQEQATSSLAASSLPSSSERSSSSAPHLEIKEGIEDDEEIRRVPEFGGEAVGKETSGRESGSATGQERTQATVGESQRKRGRTPAEKENKRLKRLLRNRVSAQQARERKKAYLSELENRVKDLENKNSELEERLSTLQNENQMLRHILKNTTGNKRGGGGGSNADASL
B3: RRP41 1-246 (Saccharomyces cerevisiae, UniProt P46948); chain MSRLEIYSPEGLRLDGRRWNELRRFESSINTHPHAADGSSYMEQGNNKIITLVKGPKEPRLKSQMDTSKALLNVSVNITKFSKFERSKSSHKNERRVLEIQTSLVRMFEKNVMLNIYPRTVIDIEIHVLEQDGGIMGSLINGITLALIDAGISMFDYISGISVGLYDTTPLLDTNSLEENAMSTVTLGVVGKSEKLSLLLVEDKIPLDRLENVLAIGIAGAHRVRDLMDEELRKHAQKRVSNASAR
B4: propionate kinase (Salmonella enterica, UniProt P74879); sequence looked up; chain MSYKIMAINAGSSSLKFQLLEMPQGDMLCQGLIERIGMADAQVTIKTHSQKWQETVPVADHRDAVTLLLEKLLGYQIINSLRDIDGVGHRVAHGGEFFKDSTLVTDETLAQIERLAELAPLHNPVNALGIHVFRQLLPDAPSVAVFDTAFHQTLDEPAYIYPLPWHYYAELGIRRYGFHGTSHKYVSGVLAEKLGVPLSALRVICCHLGNGSSICAIKNGRSVNTSMGFTPQSGVMMGTRSGDIDPSILPWIAQRESKTPQQLNQLLNNESGLLGVSGVSSDYRDVEQAANTGNRQAKLALTLFAERIRATIGSYIMQMGGLDALVFTGGIGENSARARSAVCHNLQFLGLAVDEEKNQRNATFIQTENALVKVAVINTNEELMIAQDVMRIALPATEGLCVPA
B5: gld-3 860-949 (Caenorhabditis elegans, UniProt Q95ZK7); sequence looked up; chain NGVTKTILEPRARVEKDYGKISLEHKTKYSNEYGDEEKSAENDTSSLGSRQYRIDPMKLIASVRESSEQLPRIHERQFSDVLNEKEKEIA
B6: CCDC32 L78A/L81A/K83A/K84A (Mus musculus, UniProt Q8BS39); chain MKMFESLDSSATKSGRDLWAEICSCLPSPAQEDVSDNAFSDSFMDSHPAGESHTAAADSAVQPAGKPWAPLHDSEVYAASAEAALRRIKGLNEEVTSKDMLRTLAQAKKECWDRFLQEKLASEFFVDGLDSDERTLEHFKRWLQPDKVAISTEEVQFLIPPESQAEKPEAGDKPAAAEQ
B7: scFv; chain EVQLVQSGAGVKKPGSSVKVSCKSSGGTSGSSAVSWIRQAPGQGVEWMGGITSIFGPANYAQKFQDRLKITADKATNTVYMELSGLTFEDTAVYYCARVGDYNFWNGHYRSGYYFDLWGRGTLVTVSSGGGGSGGGGSGGGGSAQSVLTQPPSASGTPGQRVTISCSGSSSNIGSNTVNWYQQLPGTAPKLLIYSNTQRPSGVPDRFSGSKSATSASLAISGLQSEDEADYYCAAWDDSLNGHVVFGGGTKVTVLGAAAENLYFQ
B8: ND6 1-185 (Yarrowia lipolytica, UniProt Q9B6E9); sequence looked up; chain MMYLTYYFIEITIFLAILCTIFIISAKNPMVSILYMIALFVIAAMYLYLIGLGIFSLLYIMIYIGAIAVLFLFIITLLDINSTELSVKSNIRDLPLVLISLIVLTISGLMIYSNDSILINKLLEAFGNDYNTIITQDWFNIENTTLLTTIGNVLLTNNAFILLVLAIVLLLGIIGPISITMKHKE
B9: PSMA5 (Homo sapiens, UniProt P28066); chain MFLTRSEYDRGVNTFSPEGRLFQVEYAIEAIKLGSTAIGIQTSEGVCLAVEKRITSPLMEPSSIEKIVEIDAHIGCAMSGLIADAKTLIDKARVETQNHWFTYNETMTVESVTQAVSNLALQFGEEDADPGAMSRPFGVALLFGGVDEKGPQLFHMDPSGTFVQCDARAIGSASEGAQSSLQEVYHKSMTLKEAIKSSLIILKQVMEEKLNATNIELATVQPGQNFHMFTKEELEEVIKDI
B10: iraM 1-78 (Escherichia coli, UniProt P75987); chain MKWIVIDTVIQPTCGISFSAIWGNMKMIIWYQSTIFLPPGSIFTPVKSGIILKDKEYPITIYHIAPFNKDLWSLLKSS
B11: PIK3R1 1-79 (Homo sapiens, UniProt P27986); chain MSAEGYQYRALYDYKKEREEDIDLHLGDILTVNKGSLVALGFSDGQEARPEEIGWLNGYNETTGERGDFPGTYVEYIGR
B12: POL32 (Saccharomyces cerevisiae, UniProt P47110); sequence looked up; chain MDQKASYFINEKLFTEVKPVLFTDLIHHLKIGPSMAKKLMFDYYKQTTNAKYNCVVICCYKDQTIKIIHDLSNIPQQDSIIDCFIYAFNPMDSFIPYYDIIDQKDCLTIKNSYELKVSESSKIIERTKTLEEKSKPLVRPTARSKTTPEETTGRKSKSKDMGLRSTALLAKMKKDRDDKETSRQNELRKRKEENLQKINKQNPEREAQMKELNNLFVEDDLDTEEVNGGSKPNSPKETDSNDKDKNNDDLEDLLETTAEDSLMDVPKIQQTKPSETEHSKEPKSEEEPSSFIDEDGYIVTKRPATSTPPRKPSPVVKRALSSSKKQETPSSNKRLKKQGTLESFFKRKAK
B13: MED2/PGD1 four-helix bundle 1-431 (Saccharomyces cerevisiae); chain 1 MVVQNSPVSSVHTANFSERGSNTRTMTYKNKLTVCFDDILKVGAEMMMQQQLKNVQLDSYLVNGFSQSQQKLLKEKVKLFHGILDDLETSLSQSSSYLETLTALGKEKEKEREEAEKKRAEQENMRKVREQEELKKRQELEEASQQQQLQQNSKEKNGLGLNFSTTAPANTTDANGSKENYQELGSLQSSSQTQLENANAANNGAAFSPLTTTRIQSQQAQPSDVMFNDLNSMDISMFSGLDSTGFDSTAFNATVDETKGFDDNDSGNNYNDINISSIENNINNNINSTKNGKDNNNESNKNNNGDEKNKNNNEDNENNNNSSEKNNNNNNNNNNNNDDNGNNNNNNSGNDNNNTTNNDSNNKNNSITTGNDNENIVNNDLPTTVVSNPGDNPPPADNGEEYLTLNDFNDLNIDWSTTGDNGELDLSGFNI; chain 2 MDSIIPAGVKLDDLQVILAKNENETRDKVCKQINEARDEILPLRLQFNEFIQIMANIDQEGSKQADRMAKYLHIRDKILQLNDRFQTLSSHLEALQPLFSTVPEYLKTADNRDRSFQLLEPLSTYNKNGNAVCSTATVVSTNHSAAASTPTTTATPHANPITHAHSLSNPNSTATMQHNPLAGKRGPKSGSTMGTPTVHNSTAAAPIAAPKKPRKPRQTKKAKAQAQAQAQAQAQVYAQQSTVQTPITASMAAALPNPTPSMINSVSPTNVMGTPLTNMMSPMGNAYSMGAQNQGGQVSMSQFNGSGNGSNPNTNTNSNNTPLQSQLNLNNLTPANILNMSMNNDFQQQQQQQQQQQQPQPQYNMNMGMNNMNNGGKELDSLDLNNLELGGLNMDFL
B14: EFR3B 716-787 (Homo sapiens, UniProt Q9Y2G0); chain VPAEEITYETLKKAIVDSVAVEEQERERRRQVVEKFQKAPFEEIAAHCGARASLLQSKLNQIFEITIRPPPS
Chain of UniProt P48067 (whole entry, looked up): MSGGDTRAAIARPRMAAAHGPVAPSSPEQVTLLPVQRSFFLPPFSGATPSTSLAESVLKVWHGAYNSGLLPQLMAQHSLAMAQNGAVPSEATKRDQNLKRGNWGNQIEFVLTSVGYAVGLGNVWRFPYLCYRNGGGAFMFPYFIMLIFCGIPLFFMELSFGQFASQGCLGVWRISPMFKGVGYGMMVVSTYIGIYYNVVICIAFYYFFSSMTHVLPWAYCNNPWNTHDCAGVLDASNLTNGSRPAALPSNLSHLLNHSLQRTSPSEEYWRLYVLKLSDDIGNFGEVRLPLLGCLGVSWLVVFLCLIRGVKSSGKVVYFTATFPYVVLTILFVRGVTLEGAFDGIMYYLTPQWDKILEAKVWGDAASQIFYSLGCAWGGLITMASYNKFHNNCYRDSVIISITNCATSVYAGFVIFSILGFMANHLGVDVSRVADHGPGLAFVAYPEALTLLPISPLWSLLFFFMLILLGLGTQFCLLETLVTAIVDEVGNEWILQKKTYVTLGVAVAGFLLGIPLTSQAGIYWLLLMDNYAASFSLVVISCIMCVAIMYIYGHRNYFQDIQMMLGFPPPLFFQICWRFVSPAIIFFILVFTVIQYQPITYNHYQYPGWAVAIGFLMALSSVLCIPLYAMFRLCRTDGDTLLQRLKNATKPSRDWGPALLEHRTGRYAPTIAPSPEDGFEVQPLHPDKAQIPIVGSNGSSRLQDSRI
Chain of UniProt Q64663 (whole entry, unmodified, looked up): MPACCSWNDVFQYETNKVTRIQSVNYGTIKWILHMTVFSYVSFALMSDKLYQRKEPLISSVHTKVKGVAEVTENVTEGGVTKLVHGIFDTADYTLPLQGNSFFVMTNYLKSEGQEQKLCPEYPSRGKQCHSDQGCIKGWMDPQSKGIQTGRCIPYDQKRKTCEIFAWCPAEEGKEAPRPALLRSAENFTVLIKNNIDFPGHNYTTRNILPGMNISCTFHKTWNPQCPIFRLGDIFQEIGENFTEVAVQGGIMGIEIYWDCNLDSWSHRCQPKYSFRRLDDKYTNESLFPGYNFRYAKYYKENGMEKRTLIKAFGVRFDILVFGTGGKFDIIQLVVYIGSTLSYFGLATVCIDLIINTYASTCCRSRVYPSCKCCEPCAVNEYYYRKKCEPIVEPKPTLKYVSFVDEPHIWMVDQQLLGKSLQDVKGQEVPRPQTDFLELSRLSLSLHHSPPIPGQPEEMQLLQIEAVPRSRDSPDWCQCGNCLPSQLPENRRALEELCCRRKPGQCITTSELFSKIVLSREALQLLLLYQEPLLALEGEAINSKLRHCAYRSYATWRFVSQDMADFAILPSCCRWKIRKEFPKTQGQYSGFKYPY
Chain of UniProt P19263 (whole entry, looked up): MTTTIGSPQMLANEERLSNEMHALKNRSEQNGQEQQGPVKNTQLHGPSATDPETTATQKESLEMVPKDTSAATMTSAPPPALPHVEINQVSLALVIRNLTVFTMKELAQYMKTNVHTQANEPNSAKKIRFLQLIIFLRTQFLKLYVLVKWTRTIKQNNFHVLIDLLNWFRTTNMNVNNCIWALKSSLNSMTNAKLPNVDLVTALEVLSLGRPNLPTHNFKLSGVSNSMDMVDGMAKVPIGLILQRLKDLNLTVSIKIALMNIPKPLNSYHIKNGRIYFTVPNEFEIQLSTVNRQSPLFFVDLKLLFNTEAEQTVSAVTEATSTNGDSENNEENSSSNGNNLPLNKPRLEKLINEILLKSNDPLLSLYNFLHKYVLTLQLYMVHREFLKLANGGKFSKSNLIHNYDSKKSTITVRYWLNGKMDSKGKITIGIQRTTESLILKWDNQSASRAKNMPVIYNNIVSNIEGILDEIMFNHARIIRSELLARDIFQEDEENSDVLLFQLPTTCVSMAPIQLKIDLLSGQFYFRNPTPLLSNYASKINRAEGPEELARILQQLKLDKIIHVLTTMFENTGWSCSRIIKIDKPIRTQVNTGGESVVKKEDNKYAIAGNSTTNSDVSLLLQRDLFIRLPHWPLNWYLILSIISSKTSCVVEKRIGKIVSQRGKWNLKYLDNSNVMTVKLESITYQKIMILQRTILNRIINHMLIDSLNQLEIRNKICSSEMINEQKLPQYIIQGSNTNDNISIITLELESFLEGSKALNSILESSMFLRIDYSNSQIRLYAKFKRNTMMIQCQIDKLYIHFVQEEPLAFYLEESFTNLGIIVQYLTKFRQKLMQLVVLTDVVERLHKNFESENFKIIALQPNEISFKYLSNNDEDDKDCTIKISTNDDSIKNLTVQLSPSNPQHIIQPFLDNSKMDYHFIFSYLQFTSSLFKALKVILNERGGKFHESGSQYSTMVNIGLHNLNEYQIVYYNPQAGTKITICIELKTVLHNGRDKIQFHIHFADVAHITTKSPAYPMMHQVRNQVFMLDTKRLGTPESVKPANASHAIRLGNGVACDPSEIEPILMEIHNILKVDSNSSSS
Chain of UniProt Q9Y2K2 (whole entry, unmodified, looked up): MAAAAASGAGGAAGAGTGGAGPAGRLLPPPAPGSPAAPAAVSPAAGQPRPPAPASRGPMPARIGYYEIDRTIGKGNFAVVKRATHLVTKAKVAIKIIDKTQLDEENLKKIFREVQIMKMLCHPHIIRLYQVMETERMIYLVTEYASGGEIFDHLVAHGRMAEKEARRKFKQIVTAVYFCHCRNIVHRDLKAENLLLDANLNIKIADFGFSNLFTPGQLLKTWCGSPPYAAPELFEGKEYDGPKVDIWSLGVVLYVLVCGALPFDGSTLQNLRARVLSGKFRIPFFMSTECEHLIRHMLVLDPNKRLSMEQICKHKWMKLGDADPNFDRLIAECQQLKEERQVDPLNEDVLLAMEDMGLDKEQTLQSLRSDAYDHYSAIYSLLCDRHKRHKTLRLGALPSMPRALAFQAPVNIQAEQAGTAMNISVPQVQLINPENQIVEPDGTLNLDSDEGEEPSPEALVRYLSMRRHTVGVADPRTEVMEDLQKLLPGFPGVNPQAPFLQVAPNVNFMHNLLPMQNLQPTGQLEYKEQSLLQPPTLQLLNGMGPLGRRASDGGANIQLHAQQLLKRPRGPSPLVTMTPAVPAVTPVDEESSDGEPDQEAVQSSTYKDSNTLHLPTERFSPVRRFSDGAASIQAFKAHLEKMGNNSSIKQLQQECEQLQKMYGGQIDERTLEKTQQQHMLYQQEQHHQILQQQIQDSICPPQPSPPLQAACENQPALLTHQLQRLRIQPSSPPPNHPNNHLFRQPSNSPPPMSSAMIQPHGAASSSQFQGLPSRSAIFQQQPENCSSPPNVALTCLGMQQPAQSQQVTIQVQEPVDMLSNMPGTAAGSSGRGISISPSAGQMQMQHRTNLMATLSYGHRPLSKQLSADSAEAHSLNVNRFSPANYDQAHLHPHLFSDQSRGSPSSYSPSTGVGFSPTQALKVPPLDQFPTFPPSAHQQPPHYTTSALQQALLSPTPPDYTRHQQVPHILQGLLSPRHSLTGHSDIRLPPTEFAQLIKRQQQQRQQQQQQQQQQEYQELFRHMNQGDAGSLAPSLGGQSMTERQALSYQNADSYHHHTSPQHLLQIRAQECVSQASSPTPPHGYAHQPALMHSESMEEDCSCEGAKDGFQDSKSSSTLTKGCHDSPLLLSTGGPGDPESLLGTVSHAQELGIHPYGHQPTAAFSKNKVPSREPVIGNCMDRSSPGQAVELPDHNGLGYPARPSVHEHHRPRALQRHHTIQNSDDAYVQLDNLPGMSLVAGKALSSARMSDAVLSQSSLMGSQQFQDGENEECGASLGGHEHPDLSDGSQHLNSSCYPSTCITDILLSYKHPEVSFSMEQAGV
Chain of UniProt Q0JHF1 (whole entry, looked up): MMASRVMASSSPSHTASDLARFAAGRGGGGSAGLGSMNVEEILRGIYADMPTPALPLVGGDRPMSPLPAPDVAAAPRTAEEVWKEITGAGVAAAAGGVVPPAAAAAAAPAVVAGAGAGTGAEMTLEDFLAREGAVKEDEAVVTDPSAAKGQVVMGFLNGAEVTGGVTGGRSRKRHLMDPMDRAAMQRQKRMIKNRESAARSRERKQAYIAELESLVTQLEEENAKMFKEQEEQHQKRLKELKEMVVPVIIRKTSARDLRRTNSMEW
Chain of UniProt P0AEV1 (whole entry, looked up): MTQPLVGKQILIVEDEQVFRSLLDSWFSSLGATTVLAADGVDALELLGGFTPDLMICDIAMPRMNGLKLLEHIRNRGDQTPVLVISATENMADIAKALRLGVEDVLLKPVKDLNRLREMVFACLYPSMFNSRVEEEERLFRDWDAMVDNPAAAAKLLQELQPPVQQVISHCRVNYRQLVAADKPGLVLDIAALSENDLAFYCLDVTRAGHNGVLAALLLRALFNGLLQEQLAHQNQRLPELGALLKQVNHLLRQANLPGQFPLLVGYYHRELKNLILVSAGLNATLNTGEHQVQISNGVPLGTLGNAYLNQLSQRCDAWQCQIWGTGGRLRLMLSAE
Chain of UniProt Q9B6E8 (whole entry, looked up): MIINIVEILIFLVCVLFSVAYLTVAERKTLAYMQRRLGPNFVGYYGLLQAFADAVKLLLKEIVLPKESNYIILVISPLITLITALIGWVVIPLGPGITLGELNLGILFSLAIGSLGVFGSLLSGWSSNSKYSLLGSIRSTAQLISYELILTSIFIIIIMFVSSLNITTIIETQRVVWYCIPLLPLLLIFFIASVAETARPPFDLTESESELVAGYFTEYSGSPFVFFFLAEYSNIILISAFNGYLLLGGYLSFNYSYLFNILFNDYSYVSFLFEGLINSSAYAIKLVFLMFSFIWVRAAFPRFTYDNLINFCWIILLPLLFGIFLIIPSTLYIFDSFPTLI
Chain of UniProt P38792 (whole entry, looked up): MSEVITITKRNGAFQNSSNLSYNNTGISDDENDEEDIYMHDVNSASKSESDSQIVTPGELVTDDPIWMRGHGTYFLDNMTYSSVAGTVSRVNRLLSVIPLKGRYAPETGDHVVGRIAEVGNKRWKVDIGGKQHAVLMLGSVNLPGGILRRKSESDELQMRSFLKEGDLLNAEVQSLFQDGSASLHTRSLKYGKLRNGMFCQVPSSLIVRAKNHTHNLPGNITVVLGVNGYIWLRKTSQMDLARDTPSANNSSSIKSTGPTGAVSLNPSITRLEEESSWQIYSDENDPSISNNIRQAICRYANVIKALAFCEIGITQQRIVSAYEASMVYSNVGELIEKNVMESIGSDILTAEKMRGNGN

Substance	target or system	test	test system	conditions	scale	measurement	value
Peginesatide	UT7/EPO	tyrosine phosphorylation, LC-MS/MS phosphoproteomics, GluC, refers to: PLCG1 tyrosine 775		10 nM, 15 min, with: 10 U/mL EPO	reference: vehicle	phosphorylation level	3.4 fold
BZIP12 (Oryza sativa, UniProt Q0JHF1)	SAPK8 (Oryza sativa, UniProt Q7Y0B9)	pull-down				binding	binds
BzATP	P2X purinoceptor 7 (P2rx7, Rattus norvegicus, UniProt Q64663, I214A/Q143A/R125A)	ion current, agonist, two-electrode voltage clamp	Xenopus oocytes	33 µM		normalized current	0.0519 and 0.0746 and 0.0719
B1 (PUM1 701-774)	CNOT1/CNOT2/CNOT3 C-terminal NOT module 1833-2361	pull-down				binding	binds
PPITYTGRFSLEPAPNSGNTL (EGR1 129-149 (Homo sapiens))	MIDN Catch domain (Homo sapiens)	X-ray crystallography	peptide			binding	binds
KKAQPISVTMVTPADLEPPQAKK (TonB residues 42-60 (Escherichia coli))	exbD 61-141 (Escherichia coli, UniProt P0ABV2)	crystal structure	peptide			binding	binds
B2 (HY5 S36D)	UBP14 (Arabidopsis thaliana, UniProt Q8L6Y1)	pull-down				binding	binds
B3 (RRP41 1-246)	RRP4 (Saccharomyces cerevisiae, UniProt P38792)	cryo-EM				binding	binds
B4 (propionate kinase)	PduC/PduD/PduE (Salmonella enterica Typhimurium LT2)	cross-linking				binding	binds
SNAPC3 (Homo sapiens, UniProt Q92966)	POLR3E (Homo sapiens, UniProt Q9NVU0)	cryo-EM				binding	binds
B5 (gld-3 860-949)	fbf-2 164-575 (Caenorhabditis elegans, UniProt Q09312)	pull-down				binding	binds
methyl-β-cyclodextrin	SLC6A9 (Homo sapiens, UniProt P48067)	transport activity, [3H]glycine uptake		2.5 mg/mL, 1 min, with: glycine 900 µM	higher = more transport	glycine uptake rate	76.2 a.u. and 65.5 a.u. and 76.4 a.u. and 66.1 a.u.
ALB (Homo sapiens, UniProt P02768)	PRDM14 (Homo sapiens, UniProt Q9GZV8)	cross-linking MS		with: DSSO		cross-linked residues	K198 to K443
B6 (CCDC32 L78A/L81A/K83A/K84A)	AP-2 α/σ2 (Mus musculus)	pull-down				binding	binds
11-deoxycorticosterone	CYP11B2 (human)	substrate binding, stopped-flow global kinetic fitting	purified enzyme	3-state conformational selection model, with: 40-fold excess adrenodoxin		rate constant k1	0.831 ± 0.0775 s⁻¹
FGA (Homo sapiens, UniProt P02671)	NOP58 (Homo sapiens, UniProt Q9Y2X3)	cross-linking MS		with: DSSO		cross-linked residues	K463 to K99
B7 (scFv)	SIK3 59-385 C121S/C181S/C333S, pT221 (Homo sapiens, UniProt Q9Y2K2)	crystal structure	scFv			binding	binds
B8 (ND6 1-185)	ND1 1-341 (Yarrowia lipolytica, UniProt Q9B6E8)	cryo-EM				binding	binds
colistin	Salmonella enterica Derby	broth microdilution	clinical isolate RKI 436/14			MIC	≤ 0.5 µg/mL
B9 (PSMA5)	PSMG1 (Homo sapiens, UniProt O95456)	cryo-EM				binding	binds
B10 (iraM 1-78)	rssB (Escherichia coli, UniProt P0AEV1)	crystal structure				binding	binds
DGPGGGPGGSHMGGNYGDDRRGGRGGYDRGGYRGRGGDRGGFRGGRGGGDRGGFG (FUS 453-507 (Homo sapiens, UniProt P35637); sequence looked up)	NUP62 (Homo sapiens, UniProt P37198)	co-IP				binding	binds
LGGLTNGSGRYISAAPGAEAKYRSASS (PUM1 774-800 (Homo sapiens, UniProt Q14671); sequence looked up)	CNOT1/CNOT2/CNOT3 NOT module 1833-2361	pull-down				binding	binds
B11 (PIK3R1 1-79)	PIK3R1 80-724 (Homo sapiens, UniProt P27986)	ITC				binding	binds
B12 (POL32)	POL3 (Saccharomyces cerevisiae, UniProt P15436)	mass photometry				binding	binds
QGRWDHETIV	human SCRIB PDZ3-4 tandem (MBP fusion)	surface plasmon resonance	peptide	concentration not given	higher = stronger binding	normalised SPR binding response	56.5 normalised RU
B13	RGR1 1-1082 (Saccharomyces cerevisiae, UniProt P19263)	cryo-EM				binding	binds
QSTGTEPFFKQKSLLL (POLH 524-539 (Homo sapiens, UniProt Q9Y253); sequence looked up)	REV1 1158-1251 (Homo sapiens, UniProt Q9UBZ9)	NMR chemical shift perturbation	peptide			binding	binds
MYO5A fragment (Homo sapiens) (sequence not shown)	CALM1 (Homo sapiens, UniProt P0DP23)	co-IP				binding	binds
B14 (EFR3B 716-787)	TTC7A/FAM126A 1-308	BLI				binding	binds
